Measurements from different studies.
Every numbered part comes from another study and shows a few of its results, in no order.

Block 1 — method: aptamer microarray, sandwich; form: DNA with 2'F-ANA; medium: in vitro; tested at: 200 nM; with: Cy3 exosite-II aptamer, 400 nM; reading: higher = stronger binding; oligonucleotide: GGTTGGTGTGGTTGG
Target: Prothrombin, mature alpha-thrombin (F2, Homo sapiens, UniProt P00734)
Notes: whole 15-mer aptamer, many near background
Modification	mean fluorescence intensity [a.u.]
2'F-ANA at 2 3 4 5 6 7 12 15	170
2'F-ANA at 1 2 3 4 6 7 9 10 11 12 13 14	106
2'F-ANA at 1 4 6 7 9 13 14 15	48.3
2'F-ANA at 1 3 4 6 8 9 10 12 14 15	62.2
2'F-ANA at 3 4 6 7 8 9 10 11 14 15	201
2'F-ANA at 3 7 8 9 10 13	541
2'F-ANA at 4 8 14 15	110
2'F-ANA at 3 4 5 6 7 8 9 11 14	174
2'F-ANA at 2 4 6 7 8 9 10 15	85.3
2'F-ANA at 4 7 9 10 11 12 13 14 15	60.7
2'F-ANA at 1 3 6 7 12 13 15	438
2'F-ANA at 3 4 7 9 11 12 14	334
2'F-ANA at 4 8 11 12 14 15	121
2'F-ANA at 3 5 7 15	135
2'F-ANA at 3 4 7 8 10 12 13 14 15	207
2'F-ANA at 3 5 7 8 9 13 15	107
2'F-ANA at 2 4 9 10 11 13 14 15	80.9

Block 2 — method: RNA Bind-n-Seq; form: RNA; medium: in vitro; tested at: 365 nM; baseline: no-protein control; reading: higher = stronger binding
Target: RNA binding protein fox-1 homolog 2, RRM domain, GST-SBP tag (RBFOX2, Homo sapiens, UniProt O43251-10, residues 100-194)
Notes: natural RNA segment, single round, ends assumed
Residues (chain): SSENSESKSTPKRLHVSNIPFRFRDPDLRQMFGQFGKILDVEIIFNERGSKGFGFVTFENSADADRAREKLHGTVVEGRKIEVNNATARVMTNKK
Oligonucleotide	RBNS enrichment (R)
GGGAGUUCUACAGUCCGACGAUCCUGAAGGAUUACUCGGACAUUACCCCGGGCAAUAGGGAACACUUUUAUUCCUAAACACAGUUACAGACACGCAGUCGAGAUCUUUCUUGAUGCUUGGGAUCUCAAGACUGUGGAAUUCUCGGGUGCCAA	0.482
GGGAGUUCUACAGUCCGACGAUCUGUUCAAAACUCUAAGCCCUACCACCUCCCCUUUAAUAAGCUCUUUAAAUAGUUGAAUCAUUAACAACCUGGUGGGAGGCAAGUCAUUUAAUUGAACCACUAGGAAGUGUUGGAAUUCUCGGGUGCCAA	0.531
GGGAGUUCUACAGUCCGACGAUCACUUGUUCCUCCAAAGCAGAACCCGGGAGGUUGCUAUCUGCCAGAAGCCUAGGCCAGCCAGAUACCACCAUUUGCUGCUUCAGGCUUGCCUGCCUGUUGUGAUAACCAGCUGGAAUUCUCGGGUGCCAA	0.284
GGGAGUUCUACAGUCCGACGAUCCAGACUCAAGGAGACAACCACCUCAACUGGGUCAUGUGGCAUGCCUGUGUAUGUGUGUAACAGAAUUCUGAUUGUUAGACUGUAAUGCUAUUCCUCUAUGGGAGAAAAAAUGGAAUUCUCGGGUGCCAA	4.86
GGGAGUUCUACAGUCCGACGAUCCCAGCCACUCUCGGGCCCCACUCCCACAUCAUCUCAGAAACCCUUCAGCCCUCGCAACUCGCCCCUCCGGGCCCCCCCACCAGGCACAACCAUCCCCGGGGCCAGCCGGGUGGAAUUCUCGGGUGCCAA	1.13
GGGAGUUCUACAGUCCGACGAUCUUUGAGGUCAUUUUUCAGCAACAUUGGAUUCCUUUCUCCUCGGUGUGCUCAGCCUUCUCUGCAGCCUCUGUGAGUUUUCAGCACGUGUGCAGCCACACAGGCUGCAACCUUGGAAUUCUCGGGUGCCAA	1.08
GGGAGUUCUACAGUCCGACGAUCAUCUAUCAAUUGUGAAUCUGGCUGCUGGUGUAUAAAAACCUGGAUGUAAAGCUGAGCCUACAGACCUGUCCUCACCAACUGUUUUGUGAUUUCUACUCAACUACAAAGAUUGGAAUUCUCGGGUGCCAA	0.356
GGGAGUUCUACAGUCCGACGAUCCUUUGUAGCAUAUGCCUGUGGUCCCAGCUACUGAGGAGGCUGAGGUGGGAGGAUUGCUUGAGCCCAGGAGGCAGAGGUUGCAGUGAGCCAAGGUCACGUCACUGCACUCUUGGAAUUCUCGGGUGCCAA	1.3
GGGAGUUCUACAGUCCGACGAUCAUAGAUCUAAUCAAAUAUGUUGAUUCAUGGCUAUAAUAAAGCAGGAGCAAUUAUAAAAUCUUCAAUCAAUUGAACUUUUACAAAACCACUUGAGAAUUUCAUGAGCACUUUGGAAUUCUCGGGUGCCAA	0.737
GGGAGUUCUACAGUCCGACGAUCUGUGGUAUCCAAGGAAUCACUUUUAUGAGGGCUAAAGAUAAAGAAUUUGGCCAGAAAAUGCAGCCAUCCUUGUGUGAUUAGGAGGGUUUCAGGGGCCACUGGACUAUUUGUGGAAUUCUCGGGUGCCAA	0.49
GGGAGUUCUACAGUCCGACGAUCAUCAUCUGCUUCUUUGAAGGAGUAAAUGUGUUUUGUUCCUAGGGCCAGAGGAGCUUGUCUUCCUUGUCCUCUGUUCCCACCCUCCCCUGAACAGAACCCAGCCCAUAAGAUGGAAUUCUCGGGUGCCAA	0.471
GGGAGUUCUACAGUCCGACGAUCCACACCAGAGAGGCCUUAUAGCGGCCCCGGAGCUAAACGCACCAGAGAAAAACCAGUGCUUCCUACUGCACAUGACUGACUCAGCUCCGCCACACGUAGCACCACUGUAAUGGAAUUCUCGGGUGCCAA	0.558

Block 3 — method: EMSA with sequencing; form: double-stranded DNA, one strand shown; medium: in vitro; tested at: 10 and 20 nM; baseline: negative control set to 0; reading: higher = stronger binding
Target: Hepatocyte nuclear factor 3-alpha (Foxa1, Mus musculus, UniProt P35582, residues 1-468, full length assumed)
Chain of UniProt P35582 (whole entry, looked up): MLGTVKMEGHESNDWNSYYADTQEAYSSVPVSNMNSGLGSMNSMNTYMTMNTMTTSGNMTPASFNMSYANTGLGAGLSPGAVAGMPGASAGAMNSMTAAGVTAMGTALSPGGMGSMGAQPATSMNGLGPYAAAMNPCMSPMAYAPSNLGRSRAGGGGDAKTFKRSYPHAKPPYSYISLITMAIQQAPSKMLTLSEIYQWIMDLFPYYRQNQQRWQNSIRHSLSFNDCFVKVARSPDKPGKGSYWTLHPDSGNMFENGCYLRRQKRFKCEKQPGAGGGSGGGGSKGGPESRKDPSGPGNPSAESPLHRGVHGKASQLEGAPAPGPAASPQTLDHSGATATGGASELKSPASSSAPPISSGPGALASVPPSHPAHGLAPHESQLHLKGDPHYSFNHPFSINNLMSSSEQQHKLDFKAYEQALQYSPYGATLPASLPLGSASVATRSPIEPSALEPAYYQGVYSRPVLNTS
Notes: whole designed probe, mean of two concentrations, ends assumed
Oligonucleotide	normalised bound fraction
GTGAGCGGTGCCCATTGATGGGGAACGTAAGGACCTCAATTTATTTTTTTCCCTAAGAGCTAATGAATTTTCCCAGTATCACCCACTGAGCCGTCCTCCCCTCTTTGTGATGCCACGTTTGTTTACCTTGTGCTGACTCATATGTTCTGCAACATTCAGCTATTTGTCAATTCTTATGCCAGTACTTCCACTGTTACCATCATCAATTTAAAGATTACTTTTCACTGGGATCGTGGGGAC	0.425 ratio
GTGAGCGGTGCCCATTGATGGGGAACGAAGGAAATAATGGAGCCAACCATGCATATAACCTCAGGGAGAACATTCTAGGTAGAGGGAACAGCAAGTGCAAAGGCCCTGAAGTGGGGGTTTGTTTACCTTCTGCACACAGGCCGTTGCACAATAGTACAATTGGAATGGATGGGAAATGTAAAAGAGAGAAGTTGAAAAGGCCAGGTGCAGTGGCTCATGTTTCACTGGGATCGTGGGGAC	0.421 ratio
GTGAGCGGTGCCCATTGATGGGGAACTAGACAAGTTTACGTAATCCTTCTGTTCCTCAGTTTCCTCATCTGTTACATGGGTGATATTAATAGGGTGTACCTTTTGATTGGGCTGGACCCAGATTGCATTCTGCCCTGAAGGAGAGCGGGGCTGTGGGTCAAAGCTGCCCTAATTATAGGTGCAGCATCCGGAGCAAGGTGTTGCTTGGCTCTGCACTGCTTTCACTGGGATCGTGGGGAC	-0.0639 ratio
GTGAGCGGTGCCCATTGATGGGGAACATCTTCCCCCTCTTCCTTGCCCCACCAGCTCACCTTCCCGGGTATCTGCAAATAAGCAAAGTAAACAAAGCCGGCATTCGTTAACCCTCTTCTGGCGCAAACTGCTGTTTGCTCTGGATGAATCATGGTCCTTTGGCGACGCCAGGCTCCGGGAGAGCAAAGCACCGTGTCAGGGCCATGATCCGGGGTGGCCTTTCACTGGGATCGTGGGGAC	0.496 ratio
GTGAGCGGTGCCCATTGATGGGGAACGTTTTCCTGGAGTTTGAAAATTGTTATTCAAGAACGTGTTAGACTTAAATCACTATTCTGGTTAAAAATAAATTAATTGTTCCTTGCATCCCTGTTTACTTAGAAATTATCCCTTTAGTCATCTTAGTTGGAAAGACAAAGCCTCAGAATTTTTTCTACACTTCTTCCTAAAAAATTTCTGCCCACTTAATCCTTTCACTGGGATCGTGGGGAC	0.185 ratio
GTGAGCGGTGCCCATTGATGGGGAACAGGGAGTAGTGTTGACCCACCCCCACTCAACACTCAGTCCAGCCAGGCCAGCCCAGGAGGAAGTCATGTAGCCACGAATCTGCCCTGAATCACAGATGACTTTTCCTTAGCTTAGATTACAAAATTCATGACCACAGATAAATGGTACAACTCCTGGAATCAGGTTTTGTAGGGCTTGAAATGCATACAATTTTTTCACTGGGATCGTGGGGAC	-0.0287 ratio

Block 4 — method: protein binding microarray; form: double-stranded DNA, one strand shown; medium: in vitro; tested at: not given; baseline: not given; reading: higher = stronger binding
Target: Histone acetyltransferase KAT6A, winged helix 1, GST fusion (KAT6A, Homo sapiens, UniProt Q92794, residues 1-85)
Notes: 8-mer, flanks averaged, mean of 2 arrays, mostly near background
Target sequence (chain): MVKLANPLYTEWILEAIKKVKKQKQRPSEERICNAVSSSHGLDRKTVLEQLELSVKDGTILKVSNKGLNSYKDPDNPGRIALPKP
Oligonucleotide	E-score
AAACACTA	-0.057
AAATCAAC	-0.231
GAGAGCAA	-0.265
AGGTATGG	-0.0179
CTAGACCA	-0.227
AACCACCT	-0.206
ATTAGATC	-0.00886
AAGCCTAC	-0.0964
AGAAGTCG	-0.0881
GGCCATCA	0.137
CTCCTCTA	-0.224
CAATACCG	0.293
ATCCCCAG	-0.309
CCACCTGG	-0.243
CAGTAGCG	0.243
CCCCCGTA	0.306

A few entries again (block 1):
Modification	mean fluorescence intensity [a.u.]
2'F-ANA at 1 3 4 6 8 9 10 12 14 15	62.2
2'F-ANA at 3 4 6 7 8 9 10 11 14 15	201
2'F-ANA at 3 7 8 9 10 13	541
2'F-ANA at 4 8 14 15	110
2'F-ANA at 3 4 5 6 7 8 9 11 14	174
2'F-ANA at 2 4 6 7 8 9 10 15	85.3
2'F-ANA at 4 7 9 10 11 12 13 14 15	60.7
